Assay results collected from several papers.
Numbered parts are unrelated; each lists some results of a single study. Positions count from the first letter of the parent shown.

Study 1
Target: RNA binding protein fox-1 homolog 2, RRM domain, GST-SBP tag (RBFOX2, Homo sapiens, UniProt O43251-10, residues 100-194)
Technique: RNA Bind-n-Seq
Form: RNA
Medium: in vitro
Tested at: 365 nM
Notes: natural RNA segment, single round, ends assumed
Relative to: no-protein control
Reading: higher = stronger binding
Target sequence (chain): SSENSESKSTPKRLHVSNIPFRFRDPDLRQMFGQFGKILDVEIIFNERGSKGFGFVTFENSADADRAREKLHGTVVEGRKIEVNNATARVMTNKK
`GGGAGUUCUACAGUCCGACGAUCGGCUCCUUCAUCGAAUGCUAAACCUUUGAGUAGAGUCUCCCUGGAUCACAUACCAGGUCAGGGAGGAUCUGUUCUUCCUCUACGUUUAUCCUGGCAUGUGCUAGGGUAAAUGGAAUUCUCGGGUGCCAA`: “RBNS enrichment (R)” 0.548.
For `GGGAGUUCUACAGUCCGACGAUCACAGUGGCCCUUCAUGGGAACAAUCUGUUGGAGCAGGGGGUCAGUUCUCUGCUGGGAAUCUACCCCUUUCUGGAGGAGAAACCCAUUCCACCUUAAUAACUUUAUUGUAAUGGAAUUCUCGGGUGCCAA`, “RBNS enrichment (R)” read 0.219.
`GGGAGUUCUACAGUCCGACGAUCUGUGCCCCACCCCUGGACAUAUACUGCUAAGGACAUCUCAAUACUAGACUCAGUCAGGAGUGGUGGUGACACUUGUAAUCCUAGACAGGCAAAAGGGUCACCAGAGGCUUUGGAAUUCUCGGGUGCCAA`: “RBNS enrichment (R)” 0.37.
`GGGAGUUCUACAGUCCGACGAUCGGAGCCCAGCUAUUUACAAAGUACACACGAGGGAGCAGGCUGGUCAUUGACUUCGGGCUGGACCGUUGCCCUCUGAGCAGAGAACAGACCCAUUUCUGGGAGCUGCCCGAUGGAAUUCUCGGGUGCCAA`: “RBNS enrichment (R)” 0.498.
`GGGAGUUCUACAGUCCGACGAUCCAGCCCCCAUAUGCACCCACCCUGUCGCUAUCUUGGAUGGCCCGCUCUGGGAGAUGUUGGGUGUUUUAAGGUUACUGAACCUACAAAGGCCCCUCCUCCCUGACCACCCAUGGAAUUCUCGGGUGCCAA`: “RBNS enrichment (R)” 0.815.
`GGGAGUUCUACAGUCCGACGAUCCAAGAAAUACAGAGUAAAGCGAAAAUAACUGCUUACCAAUAUUCUGAGAGGUAACAAAUGGGAUAUGGGUUGAGACUGCAUAAAAAACGUACUGCUGGUUGAAUAUCUGAUGGAAUUCUCGGGUGCCAA` — result for “RBNS enrichment (R)”: 0.32.
For `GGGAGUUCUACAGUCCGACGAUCCACUGAGGCAGAGACUCCUUUUGGGAGUCACUGUGGUUUAGGUUUUUUUCUCCCCAUCCCACUUAAGGUGAUGGGGCAAGGGAAGAACUCAGCUCCCCUCCCCUGAAUUAUGGAAUUCUCGGGUGCCAA`, “RBNS enrichment (R)” read 0.193.
For `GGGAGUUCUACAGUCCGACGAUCGGAGGUGGCUGGACCAUCGUACCCACGUAACCUGCCCAGGACGAUGCCUCGCUGGGGCUGAGACUUUUUUAAUCCUUGUGUAAAGAAGCGAGAUCGAGGCAGAGAAACGUUGGAAUUCUCGGGUGCCAA`, “RBNS enrichment (R)” read 0.461.
`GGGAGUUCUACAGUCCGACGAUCUUAAAAAAAUAAAUUAUCCUGCUUUAGUUAGUGUGUUAAAAGUAGACGAUGUUCUAAUAUAACACUGAAGUGCUUCAUUGUAUCCCAACAGUUUACCUUCAAGUAAUAUUUGGAAUUCUCGGGUGCCAA` — result for “RBNS enrichment (R)”: 1.02.
Under “RBNS enrichment (R)”, `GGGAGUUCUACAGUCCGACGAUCAUGUGAUUUUGAAUGAGUGUAAAUAAUUUUAAAUAACCUGGCCCUUGGAAUAAAGUUGUUUUCUGUAUUUGCCUGGUGUUGAUUGAGUUUUUAUAUGGGGUCAGUCUUGGUGGAAUUCUCGGGUGCCAA` is recorded as 3.16.
Under “RBNS enrichment (R)”, `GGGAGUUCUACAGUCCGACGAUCUGUUCCUCCACACAUGUAAAGGCACAGUGGCUCCGUGUGUUAAAAAACAGCUGUAUUUUAUGUAUGCUUUACUGAUAAGUGUGCCAAUAAUAAACUGUGUUAAUGACCAAUGGAAUUCUCGGGUGCCAA` is recorded as 0.244.
`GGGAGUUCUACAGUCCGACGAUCCUGAUGCAUCAAACUUGAGUUUUUUCCACCUCAUCUUUCCCAGUGUUUGGAAAGGUGUGAGGGUAGAGGGUUGUUUUUUUUUUUAAGGUGUAUUUGAAUGACUAUUUUAUUGGAAUUCUCGGGUGCCAA` — result for “RBNS enrichment (R)”: 0.608.

Study 2
Target: Histone acetyltransferase KAT6A, winged helix 2, GST fusion (KAT6A, Homo sapiens, UniProt Q92794, residues 85-181)
Technique: protein binding microarray
Form: double-stranded DNA, one strand shown
Medium: in vitro
Tested at: not given
Notes: 8-mer, flanks averaged, mean of 2 arrays, mostly near background
Relative to: not given
Reading: higher = stronger binding
Residues (chain): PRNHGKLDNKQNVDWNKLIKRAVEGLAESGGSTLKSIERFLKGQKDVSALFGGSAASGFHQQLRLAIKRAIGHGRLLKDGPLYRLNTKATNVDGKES
`ACGGGAAC` gave an E-score of 0.202.
For `AATTGACG`, the E-score was -0.114.
With `AGAGTCAT` the E-score was -0.277.
The E-score of `GGTTACAA` is reported as 0.0932.
The E-score of `ATCAAGAT` is reported as 0.0311.
`CCGTTTTA` gave an E-score of -0.0179.
`ACACCATG` gave an E-score of -0.0709.
`GACTCTAA` gave an E-score of -0.255.
The E-score of `ATTGGCGA` is reported as -0.0611.
The E-score of `AGTTGATA` is reported as 0.0129.
For `ACTTCACC`, the E-score was -0.0141.
With `CACACGCC` the E-score was 0.0637.
With `TACGTCAA` the E-score was -0.249.
`CTGCCATC` gave an E-score of 0.115.
With `GTGGCTTA` the E-score was -0.122.
With `CAAGAAAC` the E-score was 0.161.
For `GCAGGGCA`, the E-score was 0.126.
The E-score of `ATTCATCC` is reported as 0.0347.
`AGACCCCC` has an E-score of -0.131.

Study 3
Target: CCNB1, cyclin fold, Cln2 fusion (human)
Technique: yeast growth competition, sequencing
Medium: yeast
Notes: weak parent motif
Relative to: not given
Reading: higher = stronger binding
Parent: ORC1 docking peptide (human); PRARKRLELGNLG
`PRARKRLELGNVG [L12V]` — result for “normalised enrichment score”: 0.174.
`PRARKRLELFNLG [G10F]` — result for “normalised enrichment score”: 0.487.
For `PRARKRLELLNLG [G10L]`, “normalised enrichment score” read 1.35.
For `PRFRKRLELGNLG [A3F]`, “normalised enrichment score” read 0.424.
Under “normalised enrichment score”, `PRARKRLELGNMG [L12M]` is recorded as 0.995.
`PRARKVLELGNLG [R6V]`: “normalised enrichment score” 0.035.
`PRARKRLELGNLQ [G13Q]` — result for “normalised enrichment score”: 0.532.
For `VRARKRLELGNLG [P1V]`, “normalised enrichment score” read -0.152.
Under “normalised enrichment score”, `PRAKKRLELGNLG [R4K]` is recorded as 0.231.
`PRARKRLELVNLG [G10V]` — result for “normalised enrichment score”: 0.189.
`PRARKRLELGNLN [G13N]` — result for “normalised enrichment score”: 1.09.
`PRTRKRLELGNLG [A3T]`: “normalised enrichment score” 1.05.
For `PRARKRLELGNWG [L12W]`, “normalised enrichment score” read 1.11.
`WRARKRLELGNLG [P1W]` — result for “normalised enrichment score”: 1.38.
`PRARKRLELGNLP [G13P]` — result for “normalised enrichment score”: 0.377.
`PRARKRLEDGNLG [L9D]`: “normalised enrichment score” 0.462.
Under “normalised enrichment score”, `PRARKRLELGNLM [G13M]` is recorded as 0.267.
`PRAYKRLELGNLG [R4Y]`: “normalised enrichment score” 0.0494.
For `PRARKRLNLGNLG [E8N]`, “normalised enrichment score” read 0.903.
`PDARKRLELGNLG [R2D]`: “normalised enrichment score” 0.288.
For `PRARKRLELGNIG [L12I]`, “normalised enrichment score” read 0.138.
`RRARKRLELGNLG [P1R]` — result for “normalised enrichment score”: 0.562.
Under “normalised enrichment score”, `PRARARAELGNLG [K5A L7A]` is recorded as 0.432.
`PRARKRLEQGNLG [L9Q]`: “normalised enrichment score” 0.196.
`PRARKRLELGNTG [L12T]` — result for “normalised enrichment score”: 0.618.

Study 4
Target: UBE2L3 UBC core domain (UniProt P68036)
UniProt P68036, sequence (whole entry, looked up): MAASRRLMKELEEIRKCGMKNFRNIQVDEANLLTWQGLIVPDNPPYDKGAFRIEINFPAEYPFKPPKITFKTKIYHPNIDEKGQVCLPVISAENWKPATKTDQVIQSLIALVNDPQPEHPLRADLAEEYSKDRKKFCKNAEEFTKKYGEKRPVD
Technique: yeast two-hybrid
Medium: yeast
Notes: mostly zero background
Relative to: not given
Reading: higher = stronger interaction
B1: DTX1 RING domain (UniProt Q86Y01); chain QKVKNPPDEDCTICMERLVTASGYEGVLRHKGVRPELVGRLGRCGHMYHLLCLVAMYSNGNKDGSLQCPTCKAIYGEKTGTQ
B2: ZNRF3 RING domain (UniProt Q9ULT6); chain DTLSSSSTSDCAICLEKYIDGEELRVIPCTHRFHRKCVDPWLLQHHTCPHCRHNIIEQKGNP
B3: RNF135 RING domain (UniProt Q8IUD6); chain PVWLAEDDLGCIICQGLLDWPATLPCGHSFCRHCLEALWGARDARRWACPTCRQGAAQQPHLR
B4: RNF181 RING domain (UniProt Q9P0P0); chain VIRGSQAELKCPVCLLEFEEEETAIEMPCHHLFHSSCILPWLSKTNSCPLCRYELPTDDDTY
B5: TRIM22 RING domain (UniProt Q8IYM9); chain KEVKMSPQEGQKRDVCEHHGKKLQIFCKEDGKVICWVCELSQEHQGHQTFRINEVVKECQEK
B6: TRIM48 RING domain (UniProt Q8IWZ4); chain ISQVFQRELTCPICMNYFIDPVTIDCGHSFCRPCFYLNWQDIPILTQCFECIKTIQQRNLKT
For `KLWDINAHITCRLCSGYLIDATTVTECLHTFCRSCLVKYLEENNTCPTCRIVIHQSHPLQ (PCGF3 RING domain (UniProt Q3KNV8))`, “lacZ reporter activity” read 0.
`B1 (DTX1 RING domain)` — result for “lacZ reporter activity”: 0.
`ALDRLEKLLRCSRCTNILREPVCLGGCEHIFCSNCVSDCIGTGCPVCYTPAWIQDLKI (BARD1 RING domain (UniProt Q99728))`: “lacZ reporter activity” 0.
For `B2 (ZNRF3 RING domain)`, “lacZ reporter activity” read 0.
Under “lacZ reporter activity”, `NTAPSLTVPECAICLQTCVHPVSLPCKHVFCYLCVKGASWLGKRCALCRQEIPEDFLDK (RNF146 RING domain (UniProt Q9NTX7))` is recorded as 0.
`B3 (RNF135 RING domain)`: “lacZ reporter activity” 0.
`KITELNPHLMCVLCGGYFIDATTIIECLHSFCKTCIVRYLETSKYCPICDVQVHKTRPLL (BMI1 RING domain (UniProt P35226))` — result for “lacZ reporter activity”: 0.
`KEQLEKHNDICAICYQDMKSAVITPCSHFFHAGCLKKWLYVQETCPLCHCHLKNSSQLP (RNF145 RING domain (UniProt Q96MT1))` — result for “lacZ reporter activity”: 0.
`B4 (RNF181 RING domain)` — result for “lacZ reporter activity”: 0.
Under “lacZ reporter activity”, `B5 (TRIM22 RING domain)` is recorded as 0.
`B6 (TRIM48 RING domain)` — result for “lacZ reporter activity”: 0.
`QLRRLQEERTCKVCLDRAVSIVFVPCGHLVCAECAPGLQLCPICRAPVRSRVRTF (BIRC7 RING domain (UniProt Q96CA5))` — result for “lacZ reporter activity”: 0.

Study 5
Target: CEBPE, bZIP domain (human)
Technique: DHFR protein complementation
Medium: yeast
Notes: single substitutions, most at no-binding floor
Relative to: wild-type JUN-FOS pair
Reading: higher = stronger binding
Parent: JUN, bZIP domain (human); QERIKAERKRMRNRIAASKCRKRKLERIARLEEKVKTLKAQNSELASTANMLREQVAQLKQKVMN; partner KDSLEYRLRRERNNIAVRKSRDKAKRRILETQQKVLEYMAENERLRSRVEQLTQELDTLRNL
The binding fitness of `S43H` is reported as -1.07 natural log.
`E44T` has a binding fitness of -1.3 natural log.
The binding fitness of `T37P` is reported as -1.5 natural log.
With `V35L` the binding fitness was -0.778 natural log.
`T48I` has a binding fitness of -1.17 natural log.
`S47H` gave a binding fitness of -1.03 natural log.
`R30F` has a binding fitness of -1.18 natural log.
`E54M` has a binding fitness of -1.26 natural log.
For `I28K`, the binding fitness was -1.29 natural log.
For `S43G`, the binding fitness was -1.21 natural log.
`E54S` has a binding fitness of -1.25 natural log.
With `V35R` the binding fitness was -1.42 natural log.
The binding fitness of `K39W` is reported as -1.35 natural log.
With `K34W` the binding fitness was -1.11 natural log.
With `Q41D` the binding fitness was -1.3 natural log.
With `R53F` the binding fitness was -1.18 natural log.
`A49I` gave a binding fitness of -1.09 natural log.
With `K39D` the binding fitness was -1.33 natural log.
With `E32Y` the binding fitness was -1.3 natural log.
`L31Y` has a binding fitness of -1.47 natural log.
With `Q55R` the binding fitness was -1.27 natural log.
With `K39R` the binding fitness was -1.04 natural log.

For quick reference, copied from above (study 5):
The binding fitness of `T37P` is reported as -1.5 natural log.
With `V35L` the binding fitness was -0.778 natural log.
`T48I` has a binding fitness of -1.17 natural log.
`S47H` gave a binding fitness of -1.03 natural log.
`R30F` has a binding fitness of -1.18 natural log.
`E54M` has a binding fitness of -1.26 natural log.
For `I28K`, the binding fitness was -1.29 natural log.
